Experimental data pooled from the literature.
Each line is one published result; not all experiments were run side by side. “And” joins repeats or separate records; there may be more than shown. Numbers after ± are the reported error. Converted amounts (≈) assume the structure as drawn.
UCHL1: Ubiquitin carboxyl-terminal hydrolase isozyme L1 (UCHL1, Homo sapiens, UniProt P09936)
Chain of UniProt P09936 (whole entry, looked up): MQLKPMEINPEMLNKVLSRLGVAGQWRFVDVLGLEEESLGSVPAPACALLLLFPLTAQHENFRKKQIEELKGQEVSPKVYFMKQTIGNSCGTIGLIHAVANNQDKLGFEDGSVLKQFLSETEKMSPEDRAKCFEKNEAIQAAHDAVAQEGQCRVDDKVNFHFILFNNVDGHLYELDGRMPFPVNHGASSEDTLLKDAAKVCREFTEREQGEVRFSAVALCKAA

`C[C@@H](O)[C@H]1C(=O)N2C(C(=O)O)=C(SCCN=CN)C[C@H]12`: “lung bacterial load” 7.81 log CFU and 1.6 log CFU and 6.51 log CFU (Pseudomonas aeruginosa; PAO1, mouse, lung; dose not given).
`O=C(C#Cc1ccc(F)c(F)c1)c1cccc(Cl)c1` has a mRNA level of 33% (Pseudomonas aeruginosa; RT-qPCR, item: lasB; biofilm cells; 10 µM, 24 h; relative to: untreated).
With `OB(O)c1csc2ccccc12` the growth was 103% and 105% and 92.4% and 89.6% and 102% (Pseudomonas aeruginosa; 100 µM, 10 h; relative to: untreated).
For `COc1ccccc1C(=O)C#Cc1ccc(F)c(F)c1`, the mRNA level was 46% (Pseudomonas aeruginosa; RT-qPCR, item: phzC1; biofilm cells; 10 µM, 24 h; relative to: untreated).
For `C[C@@H](O)[C@H]1C(=O)N2C(C(=O)O)=C(S[C@@H]3CN[C@H](C(=O)N(C)C)C3)[C@H](C)[C@H]12`, “lung bacterial burden” read 4.54 log CFU and 5.15 log CFU and 4.07 log CFU and 4.16 log CFU and 4.29 log CFU and 3.7 log CFU and 3.71 log CFU and 4.17 log CFU (Pseudomonas aeruginosa; CIP 27853, mouse lung infection model, lung; 10 mg/kg, 24 h).
For `CC[C@H](C)CCCCC(=O)N[C@@H](CCN)C(=O)N[C@H](C(=O)N[C@@H](CCN)C(=O)N[C@H]1CCNC(=O)[C@H]([C@@H](C)O)NC(=O)[C@H](CCN)NC(=O)[C@H](CCN)NC(=O)[C@H](CC(C)C)NC(=O)[C@@H](CC(C)C)NC(=O)[C@H](CCN)NC1=O)[C@@H](C)O`, the MIC was 0.107 µM (≈ 0.125 µg/mL) (Pseudomonas aeruginosa; broth microdilution; ATCC 35218, cation-adjusted Mueller-Hinton broth).
`CC(C)c1ccc(/C=C2\N/C(=N/c3ccccc3)N(N)C2=O)cc1` — result for “inhibition zone diameter”: 13 ± 0.67 mm (Pseudomonas aeruginosa; ATCC 27853; concentration not given).
Under “MIC in combination”, `N=C(N)c1ccc(OCCCCCOc2ccc(C(=N)N)cc2)cc1` is recorded as 100 mg/L (Pseudomonas aeruginosa; ATCC 27853; concentration not given, added: rifampicin).
`COC(=O)[C@H](C)NC(=O)[C@H](Cc1ccccc1)NC(=O)C1OCC2(CCCCC2)CO1` has a residual biofilm of 15 ± 4% (Pseudomonas aeruginosa; crystal violet staining; 500 µg/mL, 24 h; relative to: untreated).
The FICI of `N=C(N)c1ccc(OCc2ccc(Br)cc2COc2ccc(C(=N)N)cc2)cc1` is reported as 0.094 (Pseudomonas aeruginosa; checkerboard; ATCC 27853; unit not given, added: rifampicin; lower = stronger synergy).
The biofilm formation of `COc1cc(C#CC(=O)c2ccc(C(F)(F)F)cc2)ccc1O` is reported as 66% (Pseudomonas aeruginosa; static biofilm; PA14; 10 µM, 24 h; relative to: DMSO).
With `COC(=O)[C@@H](NCc1cc2ccccc2nc1OCc1ccccc1)C(C)C` the growth was 97.4% (Pseudomonas aeruginosa; 8 µg/mL, added: pentamidine 100 µM; relative to: control).
`COc1cc(C#CC(=O)CC(C)C)ccc1O` has a biofilm formation of 68% (Pseudomonas aeruginosa; static biofilm; PA14; 10 µM, 24 h, static; relative to: DMSO).
The labelling of `N#CC(=Cc1cc2c(cc1[N+](=O)[O-])OCO2)C(=O)NC1CCCCC1` is reported as 10.8% (UCHL1; covalent, intact protein LC-MS; 12.5 µM).
For `N=C(N)c1ccc(OCc2cccc(COc3ccc(C(=N)N)cc3)c2)cc1`, “MIC in combination” read 50 mg/L (Pseudomonas aeruginosa; ATCC 27853; concentration not given, added: rifampicin).
For `CO[C@@H]1[C@@H](OC(N)=O)[C@@H](O)[C@H](Oc2ccc3c(O)c(NC(=O)c4ccc(O)c(CC=C(C)C)c4)c(=O)oc3c2C)OC1(C)C`, growth read “inhibited” (Pseudomonas aeruginosa; OD600; PAO1 wild type; concentration not given, 24 h, LB medium).
`CNC(C)C1CCC(N)C(OC2C(N)CC(N)C(OC3OCC(C)(O)C(NC)C3O)C2O)O1` (stereo not drawn) has an MIC of 32 µM (≈ 15.3 µg/mL) (Pseudomonas aeruginosa; clinical isolate P.A301, RPMI with 10% FBS; 37 °C).
With `Cc1cccc(C(=O)C#Cc2ccc(F)c(F)c2)c1` the biofilm formation was 64% (Pseudomonas aeruginosa; static biofilm; PA14; 10 µM, 24 h, static; relative to: DMSO).
With `Cn1nc(C2COC3(CCCCC3)O2)cc1-c1ccccc1` (stereo not drawn) the residual biofilm was 25 ± 11% (Pseudomonas aeruginosa; crystal violet staining; 500 µg/mL, 24 h; relative to: untreated).
Under “MIC fold reduction”, `C[C@@H](O)[C@H]1C(=O)N2C(C(=O)O)=C([C@H]3CCCO3)S[C@H]12` is recorded as > 64 fold (Pseudomonas aeruginosa; checkerboard; carbapenem-resistant; concentration not given, added: anionic gold nanoparticle 8 µg/mL; relative to: MIC alone over combination).
`CC1CCN(c2nc(Cl)nc(Nc3ccc4c(c3)OCO4)n2)CC1` gave a labelling of 10.4% (UCHL1; covalent, intact protein LC-MS; 12.5 µM).

Repeated from above:
`COc1cc(C#CC(=O)CC(C)C)ccc1O` has a biofilm formation of 68% (Pseudomonas aeruginosa; static biofilm; PA14; 10 µM, 24 h, static; relative to: DMSO).
The labelling of `N#CC(=Cc1cc2c(cc1[N+](=O)[O-])OCO2)C(=O)NC1CCCCC1` is reported as 10.8% (UCHL1; covalent, intact protein LC-MS; 12.5 µM).
For `N=C(N)c1ccc(OCc2cccc(COc3ccc(C(=N)N)cc3)c2)cc1`, “MIC in combination” read 50 mg/L (Pseudomonas aeruginosa; ATCC 27853; concentration not given, added: rifampicin).
